Measured values gathered from unrelated publications.
Lines come from different studies, so protocols differ. ± gives the spread as reported.
Histone acetyltransferase RTT109 with Vps75: Histone acetyltransferase RTT109, with Vps75 (Saccharomyces cerevisiae, UniProt Q07794)
Sequence of UniProt Q07794 (whole entry, looked up): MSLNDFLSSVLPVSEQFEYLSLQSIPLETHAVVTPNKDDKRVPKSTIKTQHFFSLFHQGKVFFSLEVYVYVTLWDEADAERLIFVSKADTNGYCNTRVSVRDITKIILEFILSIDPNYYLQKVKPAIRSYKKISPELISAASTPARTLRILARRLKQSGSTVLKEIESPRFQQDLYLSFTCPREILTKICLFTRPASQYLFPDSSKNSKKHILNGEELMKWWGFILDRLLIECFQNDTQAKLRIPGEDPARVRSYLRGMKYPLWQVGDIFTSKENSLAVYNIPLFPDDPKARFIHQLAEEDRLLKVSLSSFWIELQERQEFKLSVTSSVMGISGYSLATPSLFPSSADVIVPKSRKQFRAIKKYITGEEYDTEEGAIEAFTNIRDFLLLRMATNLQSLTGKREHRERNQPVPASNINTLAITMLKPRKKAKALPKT
BRD4 BD1: Bromodomain-containing protein 4, BD1 (BRD4, Homo sapiens, UniProt O60885)
Sequence of UniProt P07948 (whole entry, looked up): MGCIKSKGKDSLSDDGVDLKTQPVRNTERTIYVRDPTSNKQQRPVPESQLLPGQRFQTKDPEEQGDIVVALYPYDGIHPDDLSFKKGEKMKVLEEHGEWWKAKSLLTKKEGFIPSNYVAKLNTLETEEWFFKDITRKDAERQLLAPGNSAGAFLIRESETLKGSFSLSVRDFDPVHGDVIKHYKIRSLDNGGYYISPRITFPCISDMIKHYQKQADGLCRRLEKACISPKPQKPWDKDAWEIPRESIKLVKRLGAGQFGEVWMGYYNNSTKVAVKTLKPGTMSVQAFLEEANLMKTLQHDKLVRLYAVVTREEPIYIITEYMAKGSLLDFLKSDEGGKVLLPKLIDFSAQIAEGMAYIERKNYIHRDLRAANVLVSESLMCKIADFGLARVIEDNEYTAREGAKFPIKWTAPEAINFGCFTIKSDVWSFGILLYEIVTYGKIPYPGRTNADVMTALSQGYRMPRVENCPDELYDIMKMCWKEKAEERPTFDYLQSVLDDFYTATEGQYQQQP
Sequence of UniProt P42336 (whole entry, looked up): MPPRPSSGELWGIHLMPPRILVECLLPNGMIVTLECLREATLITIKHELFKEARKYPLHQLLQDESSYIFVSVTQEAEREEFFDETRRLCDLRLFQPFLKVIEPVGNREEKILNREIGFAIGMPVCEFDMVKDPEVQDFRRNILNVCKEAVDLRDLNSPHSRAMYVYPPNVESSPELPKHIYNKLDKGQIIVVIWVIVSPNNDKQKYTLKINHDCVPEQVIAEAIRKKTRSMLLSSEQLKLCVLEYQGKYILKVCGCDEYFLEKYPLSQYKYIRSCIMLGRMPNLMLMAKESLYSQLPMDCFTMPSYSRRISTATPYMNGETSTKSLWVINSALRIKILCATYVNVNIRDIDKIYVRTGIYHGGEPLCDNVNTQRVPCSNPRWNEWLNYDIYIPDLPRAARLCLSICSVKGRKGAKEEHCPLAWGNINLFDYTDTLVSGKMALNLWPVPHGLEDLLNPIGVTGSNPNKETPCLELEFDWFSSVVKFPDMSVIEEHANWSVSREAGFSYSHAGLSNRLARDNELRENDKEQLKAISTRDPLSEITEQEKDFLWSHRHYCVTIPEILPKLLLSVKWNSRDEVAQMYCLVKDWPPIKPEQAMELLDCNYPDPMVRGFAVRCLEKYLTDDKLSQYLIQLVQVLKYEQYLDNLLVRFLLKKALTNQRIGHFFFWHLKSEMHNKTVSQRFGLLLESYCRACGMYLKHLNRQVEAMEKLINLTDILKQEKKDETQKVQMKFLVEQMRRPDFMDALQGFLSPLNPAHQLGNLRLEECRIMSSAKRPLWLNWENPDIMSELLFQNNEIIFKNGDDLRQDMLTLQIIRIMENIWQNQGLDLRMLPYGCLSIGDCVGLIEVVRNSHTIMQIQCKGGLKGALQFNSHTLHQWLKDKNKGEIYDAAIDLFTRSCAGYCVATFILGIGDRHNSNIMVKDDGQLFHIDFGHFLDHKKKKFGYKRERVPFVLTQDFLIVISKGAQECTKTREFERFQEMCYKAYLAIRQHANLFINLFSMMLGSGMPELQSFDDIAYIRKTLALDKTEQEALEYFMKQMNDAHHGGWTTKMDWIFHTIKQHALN
Sequence of UniProt P97612 (whole entry, looked up): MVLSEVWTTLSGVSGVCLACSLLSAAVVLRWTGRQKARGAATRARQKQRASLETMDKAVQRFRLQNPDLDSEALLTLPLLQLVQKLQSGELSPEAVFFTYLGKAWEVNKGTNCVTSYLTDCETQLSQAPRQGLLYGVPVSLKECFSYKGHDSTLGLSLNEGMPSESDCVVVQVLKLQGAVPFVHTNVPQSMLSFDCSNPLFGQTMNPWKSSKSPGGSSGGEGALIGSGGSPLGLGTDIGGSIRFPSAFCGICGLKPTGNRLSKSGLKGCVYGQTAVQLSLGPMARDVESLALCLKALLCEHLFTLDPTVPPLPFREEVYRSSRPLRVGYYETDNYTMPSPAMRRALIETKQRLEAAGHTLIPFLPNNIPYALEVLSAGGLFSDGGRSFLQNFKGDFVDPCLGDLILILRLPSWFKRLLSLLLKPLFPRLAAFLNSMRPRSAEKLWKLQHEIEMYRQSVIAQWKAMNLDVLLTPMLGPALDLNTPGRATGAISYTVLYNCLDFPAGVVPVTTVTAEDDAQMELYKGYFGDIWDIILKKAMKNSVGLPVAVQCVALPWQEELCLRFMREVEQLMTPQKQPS
Sequence of UniProt Q8IXJ6 (whole entry, looked up): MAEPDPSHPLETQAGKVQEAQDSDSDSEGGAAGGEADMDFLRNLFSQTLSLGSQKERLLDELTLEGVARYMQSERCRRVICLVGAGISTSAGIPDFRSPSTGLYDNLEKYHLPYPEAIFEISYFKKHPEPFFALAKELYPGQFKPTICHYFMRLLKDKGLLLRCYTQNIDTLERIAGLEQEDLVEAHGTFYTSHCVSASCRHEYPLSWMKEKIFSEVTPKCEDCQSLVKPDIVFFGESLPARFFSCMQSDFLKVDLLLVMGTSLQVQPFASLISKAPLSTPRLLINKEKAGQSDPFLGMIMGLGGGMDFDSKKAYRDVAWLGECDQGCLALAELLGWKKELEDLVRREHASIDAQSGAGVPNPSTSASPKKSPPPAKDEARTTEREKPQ
Sequence of UniProt Q86UE8 (whole entry, looked up): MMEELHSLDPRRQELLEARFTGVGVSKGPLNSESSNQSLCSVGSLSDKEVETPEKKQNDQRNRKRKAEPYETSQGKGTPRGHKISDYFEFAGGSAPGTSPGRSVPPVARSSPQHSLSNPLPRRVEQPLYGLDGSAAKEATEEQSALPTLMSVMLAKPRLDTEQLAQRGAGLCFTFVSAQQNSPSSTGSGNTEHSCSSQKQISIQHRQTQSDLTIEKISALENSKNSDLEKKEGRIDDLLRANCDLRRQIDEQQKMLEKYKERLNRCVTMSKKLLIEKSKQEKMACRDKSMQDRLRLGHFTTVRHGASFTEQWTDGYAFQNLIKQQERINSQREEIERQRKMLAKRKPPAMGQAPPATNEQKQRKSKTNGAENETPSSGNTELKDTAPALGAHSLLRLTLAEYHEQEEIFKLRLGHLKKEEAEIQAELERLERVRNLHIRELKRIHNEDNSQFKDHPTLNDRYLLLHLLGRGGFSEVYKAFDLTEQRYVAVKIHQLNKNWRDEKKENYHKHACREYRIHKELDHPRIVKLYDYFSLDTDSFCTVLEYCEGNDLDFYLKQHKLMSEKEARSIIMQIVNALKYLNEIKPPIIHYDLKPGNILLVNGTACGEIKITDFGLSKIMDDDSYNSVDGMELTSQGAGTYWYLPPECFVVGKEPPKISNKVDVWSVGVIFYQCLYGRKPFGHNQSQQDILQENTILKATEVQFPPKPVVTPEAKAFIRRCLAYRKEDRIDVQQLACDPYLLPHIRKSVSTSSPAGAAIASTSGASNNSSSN

SMILES	tested on	test	system	setting	how to read	endpoint	value
COC(=O)c1ccn2c(NCCN3CCOCC3)c(-c3cccn3C)nc2c1	PIK3CA (Homo sapiens, UniProt P42336)	enzyme activity	–	together with: 10 µM ATP	–	IC50	232 µM
Cc1nnc(S)s1	Histone acetyltransferase RTT109 with Vps75	enzyme activity, inhibitor, HTS, CPM-based, dose response	–	–	–	IC50	> 125 µM
O=C(Nc1cnccc1Cl)N1CCN(Cc2ccc3c(c2)OC(F)(F)O3)CC1	Faah (Rattus norvegicus, UniProt P97612)	enzyme activity, inhibitor	rat brain membranes	45 min preincubation	–	IC50	0.161 µM
CN(C)C(=O)c1cc2cnc(Nc3ccc(-c4cccc5c(=O)cc(N6CCNCC6)oc45)cc3)nc2n1C1CCCC1	BRD4 BD1	inhibitor	–	–	–	IC50	0.002 µM
O=C(O)c1ccc2[nH]c(-c3ccc(OCCC(O)COc4ccc(-c5nc6cc(C(=O)O)ccc6[nH]5)cc4)cc3)nc2c1 (centres unmarked)	Beta-lactamase (Escherichia coli, UniProt Q8VNN1)	enzyme activity, inhibitor	–	–	–	IC50	76 ± 18 µM
CCN(c1ccccc1)S(=O)(=O)c1ccc(Cl)c(C(=O)Nc2ccccc2N2CC(C)(C)CC2=O)c1	N-myristoyltransferase (Cryptosporidium parvum, UniProt Q5CV46)	enzyme activity, inhibitor	–	–	–	IC50	> 125 µM
O=C(NNC1CC(=O)N(c2ccc(Br)cc2)C1=O)c1ccc(-n2cccc2)cc1 (centres unmarked)	Histone acetyltransferase RTT109 with Vps75	enzyme activity, inhibitor, HTS, CPM-based, dose response	–	–	–	IC50	> 125 µM
CC1(C)CCC2=C(O1)c1ccccc1C(=O)C2=O	Toxoplasma gondii	parasite growth	HFF, bradyzoite, glutamine-induced	–	–	EC90	64.1 µM
c1ccc2nsnc2c1	Histone acetyltransferase RTT109 with Vps75	enzyme activity, inhibitor, HTS, CPM-based, dose response	–	–	–	IC50	> 125 µM
CCCCCCCCCCCCNC(=S)NCCCC[C@H](NC(=O)OCc1ccccc1)C(=O)N[C@@H](CCCCN)C(=O)N[C@@H](CCCNC(=N)N)C(N)=O	SIRT2 (Homo sapiens, UniProt Q8IXJ6)	enzyme activity, inhibitor	–	–	–	IC50	0.5 ± 0.08 µM
CN(C)C(=O)c1cc2cnc(Nc3ccc(-c4cccc5c(=O)cc(N6CCOCC6)oc45)c(F)c3)nc2n1C1CCCC1	BRD4 BD1	inhibitor	–	–	–	IC50	0.0229 µM
CC(C)C[C@H](NC(=O)C[C@H](O)[C@H](CC(C)C)NC(=O)[C@H](Cc1c[nH]cn1)NC(=O)CNC(=O)[C@@H](NC(=O)[C@H](C)NC(=O)[C@H](Cc1c[nH]c2ccccc12)NC(=O)[C@H](CCC(N)=O)NC(=O)[C@@H](Cc1ccccc1)NC(=O)COCCOCCNC(=O)CCC(C(=O)O)N1CCN(CC(=O)O)CCN(CC(=O)O)CCN(CC(=O)O)CC1)C(C)C)C(N)=O (some centres unmarked) [lutetium-177 labelled]	–	–	BALB/c nu/nu mice, female, pancreas	intravenous, 100 pmol, 30 min, time course 0.5 h, together with: PA 300 µg	–	tissue uptake	19 ± 2 %ID/g
CN(C)C(=O)c1cc2cnc(Nc3cccc4c(=O)cc(N5CCOCC5)oc34)nc2n1C1CCCC1	BRD4 BD1	inhibitor	–	–	–	IC50	> 10 µM
Cc1cnc(-c2ccc(-c3ccc(NC(=O)Nc4c(F)cc(F)cc4F)cc3F)c3c2C(=O)NC3)[nH]1	Tyrosine-protein kinase Lyn, isoform B (LYN, Homo sapiens, UniProt P07948)	enzyme activity, inhibitor	–	together with: ATP at Km	–	IC50	0.0069 µM
NS(=O)(=O)C#Cc1ccccc1	Toxoplasma gondii	parasite growth, luciferase reporter	HFF, tachyzoite	72 h	–	EC90	47.8 µM
Cn1cc(-c2ccc(-c3cncc(Cl)c3N3CCC4(CCNC4=O)CC3)cc2)cn1	COLO 205	gene expression, microarray, refers to: MMP2 mRNA	–	concentration not given, 6 h	baseline: untreated cells	log2 fold change	1.71
O=C1CC(N2CCC(c3nc4ccccc4o3)CC2)C(=O)N1c1cc(Cl)cc(Cl)c1 (centres unmarked)	Histone acetyltransferase RTT109 with Vps75	enzyme activity, inhibitor, HTS, CPM-based, dose response	–	–	–	IC50	> 125 µM
COc1cc2c(cc1O)CC[n+]1cc3c(OC)c(OC)ccc3cc1-2	serine/threonine phosphatase Stp1 (Staphylococcus aureus, UniProt A0A0H2XF73)	phosphatase activity, inhibitor	–	–	–	IC50	> 296 µM
O=C1CC(N2CCN(c3ncccn3)CC2)C(=O)N1c1cc(Cl)cc(Cl)c1 (centres unmarked)	Histone acetyltransferase RTT109 with Vps75	enzyme activity, inhibitor, HTS, CPM-based, dose response	–	–	–	IC50	> 125 µM
CC[C@@H]1[C@H](F)C(=O)N[C@@H]1COc1nccc2cc(C(N)=O)c(OC)cc12	TLK2 (Homo sapiens, UniProt Q86UE8)	ATP-site probe binding, ActivX profiling	THP-1 cell lysate	Lys2 site	–	IC50	1.2 µM
